# Published values gathered from unrelated publications.
# Compare with care: the assays were run in different laboratories. Values joined by “and” are separate records of one study, mostly repeats; a detail may differ.
# FLT3: Receptor-type tyrosine-protein kinase FLT3 (FLT3, Homo sapiens, UniProt P36888)
target,test,conditions,scale,measurement,result,Structure (SMILES)
FLT3,"enzyme activity, inhibitor",0.1 µM,,inhibition,15%,CN1CCN(Cc2ccc(-c3ccc(CO[C@H]4CCC[C@@H]4NC(=O)c4cc(-c5cnn(C)c5)cnc4N)cc3)cc2)CC1
"FLT3 (Homo sapiens, UniProt P36888, K663Q)","cell-free assay, competition with immobilised ligand",10 µM,,remaining binding,92%,CC(C)=CC1OC(C)(C)C2C=C3C(=O)C(Cl)=CC(O)C3C3C(O)C4OC4C(=O)C132 (stereo not drawn)
FLT3,"kinase activity, inhibitor, ProQinase kinase profiling",25 µM,relative to: control,remaining activity,107%,COCC12C(=O)NC3C4(C(OC)CC1O)C1CC5(O)C(OC)C(O)C(OC(C)=O)(C1C5OC(=O)c1ccccc1)C3(O)C(OC)C24 (stereo not drawn)
FLT3,,1000 nM,,inhibition,5.6%,COc1cc(OC)c(F)c(/C=C/c2cnc3ccn(S(=O)(=O)c4cn(CCF)cn4)c3n2)c1F
FLT3,"enzyme activity, inhibitor",1 µM,,remaining activity,101%,O=c1c(-c2ccc(Cl)c(CN3CCOCC3)c2)coc2cc(O)ccc12
FLT3,"enzyme activity, inhibitor",10 µM,,inhibition,60%,NC(=O)C[C@H]1CCc2sc3ncnc(O[C@H]4CC[C@H](N5CCOCC5)CC4)c3c21
FLT3,enzyme activity,1 µM,relative to: DMSO control,remaining activity,48.2%,Nc1ncc(-c2cc(-c3cnn(CC(F)(F)F)c3)ncc2F)nc1C(=O)NC1CNCC(F)C1 (stereo not drawn)
FLT3,kinase activity,"0.1 µM, with: ATP at Km",,inhibition,7.1%,CCn1cc(C(=O)O)c(=O)c2c(N)c(F)c(NC3CCCCC3)cc21
"FLT3 (Homo sapiens, UniProt P36888, D835Y)",enzyme activity,"100 nM, human enzyme, with: 10 µM ATP",relative to: untreated,remaining activity,5%,O=C=[N][Ru-4]123([n]4c5ccc(O)cc5c5c6c(c7cc(F)c[n+]1c7c54)C(=O)NC6=O)[S+]1CC[S+]2CC[S+]3CC1 (stereo not drawn)
FLT3,kinase activity,0.1 µM,,inhibition,17% and 13%,C=CC(=O)Nc1cccc(-c2cnc3[nH]cc(C(=O)NC(C)(C)C)c3n2)c1
"FLT3 (Homo sapiens, UniProt P36888, ITD)",cell-free assay,0.1 µM,,remaining signal,7.9%,Cc1cnc2nc1Nc1cccc(c1)COC/C=C/COCc1cc(ccc1OCCN1CCOCC1)N2
FLT3,"kinase activity, inhibitor",1 µM,relative to: untreated control,remaining activity,98%,COc1c(OCCCN2CCOCC2)ccc2c1N=C(NC(=O)c1cnc(N)nc1)N1CCN=C21
FLT3,"enzyme activity, inhibitor",10 µM,,inhibition,0%,Cc1cccc(O[C@H]2CCC[C@@H](C(C)CNCc3ccncc3)C2)c1 (relative stereo)
FLT3,"cell-free assay, inhibitor",1 µM,,inhibition,11%,C=CC(=O)N1Cc2nc(-c3cc(-c4cc(Cl)cnc4Cl)c(F)cc3F)n(-c3ccncn3)c2C1
"FLT3 (Homo sapiens, UniProt P36888, R834Q)",binding,1 µM,,remaining binding,85%,COc1cc(Nc2nccc(-c3cnn4nc(OC)ccc34)n2)cc(C(F)(F)F)c1
FLT3,"enzyme activity, inhibitor",1 µM,,inhibition,0%,CN1CC[C@@H](COc2cnc(C#N)cc2-c2ccn3nc(NC(=O)C4CC4)cc3c2)C1
FLT3,inhibitor,1 µM,relative to: control,remaining activity,100%,COc1cc(Nc2nc(C)cc(-c3cnn4nc(OC)ccc34)n2)cc(C(F)(F)F)c1
"FLT3 (Homo sapiens, UniProt P36888, N841I)","cell-free assay, competition with immobilised ligand",1 µM,,remaining binding,94%,C=CC(=O)N1CCCC(n2c(=O)c3ncccc3n(Cc3ccc(Oc4ccccc4)cc3)c2=O)C1 (stereo not drawn)

# A few entries again:
target,test,conditions,scale,measurement,result,Structure (SMILES)
FLT3,"enzyme activity, inhibitor",10 µM,,inhibition,0%,Cc1cccc(O[C@H]2CCC[C@@H](C(C)CNCc3ccncc3)C2)c1 (relative stereo)
"FLT3 (Homo sapiens, UniProt P36888, N841I)","cell-free assay, competition with immobilised ligand",1 µM,,remaining binding,94%,C=CC(=O)N1CCCC(n2c(=O)c3ncccc3n(Cc3ccc(Oc4ccccc4)cc3)c2=O)C1 (stereo not drawn)
